Results pooled from the literature.
Parts stem from different laboratories: compare values within a part only.

Sample 1
Target: 5-hydroxytryptamine receptor 5A (HTR5A, Homo sapiens, UniProt P47898)
Chain of UniProt P47898 (whole entry, looked up): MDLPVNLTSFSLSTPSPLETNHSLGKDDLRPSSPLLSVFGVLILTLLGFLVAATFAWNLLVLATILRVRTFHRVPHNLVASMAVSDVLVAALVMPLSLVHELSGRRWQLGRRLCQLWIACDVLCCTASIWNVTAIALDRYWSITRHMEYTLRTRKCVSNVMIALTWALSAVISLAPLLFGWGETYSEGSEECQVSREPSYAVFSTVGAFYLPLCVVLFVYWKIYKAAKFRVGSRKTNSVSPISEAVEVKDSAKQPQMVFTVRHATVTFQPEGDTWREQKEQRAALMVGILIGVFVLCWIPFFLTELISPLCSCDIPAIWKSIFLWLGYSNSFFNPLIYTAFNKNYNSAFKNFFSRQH
Read-out: cell-free assay
Tested at: 10 µM
Endpoint: inhibition
SMILES = CC(=O)c1c(NS(C)(=O)=O)c2cc(-c3ccc(Cl)cc3)c(-c3ccc(Cl)cc3Cl)nc2n(C)c1=O; result = 39.9%
SMILES = C[C@H](NC(=O)Nc1cc2[nH]ncc2c(CO)n1)c1ccccn1; result = 9.46%
SMILES = Cc1c[nH]c2nccc(Oc3c(F)cc(Nc4cc(Cl)nc(N)n4)cc3F)c12; result = -9.86%
SMILES = CN1CCN(C(=O)C(C)(C)c2ccc(C(=O)Nc3cn4cc(-c5ccncc5)ccc4n3)cc2)CC1; result = 4%
SMILES = CCCCN(CCCC)C(=O)CN1C[C@@H](c2cc(OC)c3c(c2)OCO3)[C@H](C(=O)O)[C@H]1CC(C)(C)CCC; result = 43.5%
SMILES = Cc1nc(Cc2cccc(C(F)(F)F)c2)sc1-c1ccc(C(N)=O)nc1; result = 3.99%
SMILES = Nc1c(C(=O)NCc2ccc(C(=O)NCCCC3CCCCC3)cc2)cnn1-c1ccccc1; result = 9.6%
SMILES = c1ccc(N2CCN(Cc3nc4ccccc4[nH]3)CC2)nc1; result = 10.6%
SMILES = CCS(=O)(=O)c1cc2cc(C[C@](O)(CC(C)(C)c3ccc(F)cc3C(N)=O)C(F)(F)F)[nH]c2cn1; result = 12.2%
SMILES = O=C(c1ccc(F)cc1)N1CC(COc2ccc(Br)cc2)(C(=O)O)C1; result = -14.3%

Sample 2
Organism: Sarcocystis neurona
Read-out: parasite growth
Tested at: 10 µM
Time: 96 h
Notes: first screen
Relative to: untreated
Endpoint: log2 fold change
Compound = CC(=O)[C@]1(O)Cc2c(O)c3c(c(O)c2[C@@H](O[C@H]2C[C@H](N)[C@H](O)[C@H](C)O2)C1)C(=O)c1ccccc1C3=O; result = -5.38
Compound = NC(=O)N1c2ccccc2CC(=O)c2ccccc21; result = -1.51
Compound = c1ccc(-c2ccc(C(c3ccccc3)n3ccnc3)cc2)cc1 (stereo not drawn); result = -1.68
Compound = Nc1nc2c(ncn2CCC(CO)CO)c(=O)[nH]1; result = -0.06
Compound = CN(CCCN1c2ccccc2CCc2ccccc21)CC(=O)c1ccc(Cl)cc1; result = -0.0753
Compound = CC(C)NCC(O)c1cc(O)cc(O)c1 (stereo not drawn); result = 0.2
Compound = CC1=C(/C=C/C(C)=C/C=C/C(C)=C\C(=O)O)C(C)(C)CCC1; result = 0.15
Compound = COC(=O)C[C@](O)(CCCC(C)(C)O)C(=O)O[C@@H]1C(OC)=C[C@]23CCCN2CCc2cc4c(cc2[C@H]13)OCO4; result = -9.19

Sample 3
Host: mouse
Matrix: microsomes or S9
Tested at: 2 µM
Time: 0.5 h
Endpoint: remaining compound
SMILES = CCOC(=O)c1ccc(-c2ccc(C3CC(=O)Nc4cc5c(cc43)OCO5)o2)cc1 (stereo not drawn); result = 50.8%
SMILES = Oc1cc(O)c2c(c1)O[C@H](c1ccc(O)c(O)c1)[C@H](O)[C@H]2c1c(O)cc(O)c2c1O[C@H](c1ccc(O)c(O)c1)[C@H](O)C2; result = 88.3%
SMILES = COc1ccccc1NC(=O)NC1Cc2ccccc2C1; result = 4.6%
SMILES = CC(=O)Nc1nc(-c2cnc3ccc(Cl)cn23)c(C)s1; result = 22.4%
SMILES = CCCc1noc2nc(CC)cc(C(=O)N(C)Cc3ncon3)c12; result = 37.5%
SMILES = Cc1cc(NCc2cn[nH]c2-c2ccccc2)ccc1Br; result = 12.1%

Sample 4
Target: Phosphorylase b kinase gamma catalytic chain, skeletal muscle/heart isoform (PHKG1, Homo sapiens, UniProt Q16816)
Chain of UniProt Q16816 (whole entry, looked up): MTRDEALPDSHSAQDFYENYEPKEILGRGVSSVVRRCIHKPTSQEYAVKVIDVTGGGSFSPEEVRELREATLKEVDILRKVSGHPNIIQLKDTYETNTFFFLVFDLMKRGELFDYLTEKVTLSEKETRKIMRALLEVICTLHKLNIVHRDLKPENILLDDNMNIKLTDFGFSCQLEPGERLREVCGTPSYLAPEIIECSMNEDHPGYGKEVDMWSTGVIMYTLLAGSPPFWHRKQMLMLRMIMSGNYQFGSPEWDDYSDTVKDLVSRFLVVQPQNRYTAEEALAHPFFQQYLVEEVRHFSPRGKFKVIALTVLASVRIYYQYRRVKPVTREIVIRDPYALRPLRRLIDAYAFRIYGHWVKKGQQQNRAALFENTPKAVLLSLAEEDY
Read-out: enzyme activity
Action: inhibitor
Tested at: 0.5 µM
Relative to: control
Endpoint: remaining activity
SMILES = O=c1c2ccccc2[nH]c(=S)n1CCN1CCC(=C(c2ccc(F)cc2)c2ccc(F)cc2)CC1; result = 101%
SMILES = O=C(Nc1cccc(Nc2cc(Nc3cccc(C(F)(F)F)c3)ncn2)c1)C1CC1; result = 100%
SMILES = Oc1ccc(-c2nc(-c3ccncc3)c(-c3ccc(F)cc3)[nH]2)cc1; result = 94.2%
SMILES = COc1cc2ncnc(Nc3ccc(F)c(Cl)c3)c2cc1OCCCN1CCOCC1; result = 68.8%
SMILES = CN(C)c1ccc(C=C2C(=O)Nc3ccccc32)cc1; result = 99.1%
SMILES = Cn1sc(=O)n(Cc2ccccc2)c1=O; result = 102%
SMILES = O=C1NC(=O)C(c2cn(CCCn3ccnc3)c3ccccc23)=C1Nc1ccccc1; result = 64.6%
SMILES = COc1cc2nccc(Oc3ccc(NC(=S)NC(=O)c4ccccc4C)cc3)c2cc1OC; result = 89.2%
SMILES = Cc1ccc(NC(=O)c2ccc(CN3CCN(C)CC3)cc2)cc1Nc1nc(-c2cccnc2)cs1; result = 92.2%
SMILES = CC(C)[C@H](CO)Nc1nc(Nc2cc(N)cc(Cl)c2)c2ncn(C(C)C)c2n1; result = 81.1%
SMILES = Nc1ccc2ncnc(NCCc3ccc(Oc4ccccc4)cc3)c2c1; result = 96.4%
SMILES = CNC(=O)c1cc(Oc2ccc(NC(=O)Nc3ccc(Cl)c(C(F)(F)F)c3)cc2)ccn1; result = 94.3%
SMILES = C#Cc1cccc(Nc2ncnc3cc(OCCOC)c(OCCOC)cc23)c1; result = 93.2%
SMILES = COc1ccc(OC)c2c(=S)c3ccccc3[nH]c12; result = 83%
SMILES = N#CC(C#N)=C(N)/C(C#N)=C/c1ccc(O)cc1; result = 92.5%

For quick reference, copied from above (sample 4):
SMILES = C#Cc1cccc(Nc2ncnc3cc(OCCOC)c(OCCOC)cc23)c1; result = 93.2%
SMILES = COc1cc2nccc(Oc3ccc(NC(=S)NC(=O)c4ccccc4C)cc3)c2cc1OC; result = 89.2%
SMILES = CNC(=O)c1cc(Oc2ccc(NC(=O)Nc3ccc(Cl)c(C(F)(F)F)c3)cc2)ccn1; result = 94.3%
SMILES = CC(C)[C@H](CO)Nc1nc(Nc2cc(N)cc(Cl)c2)c2ncn(C(C)C)c2n1; result = 81.1%
